Published values collected from several papers.

SMILES | test | system | setting | Tmax
COc1nnc2ccc(N3CCC(c4ccc(OCCN5CCN(C)C(=O)[C@H]5C)cc4)CC3)nn12 |  | patients, plasma | oral, 20 mg twice daily, multiple dose, monotherapy, median | 1 h
C[C@H]1CN(C(=O)CC#N)[C@]12CCN(c1ncnc3[nH]ccc13)C2 |  | healthy Japanese males, plasma | oral, 5 mg single dose | 1 h
CC(F)(F)c1nc2nc(CO)cc(Nc3ccc(S(F)(F)(F)(F)F)cc3)n2n1 | LC-MS/MS, non-compartmental | malaria patients | 800 mg of parent drug, median | 136 h
CCc1nc(C(N)=O)c(Nc2ccc(N3CCC(N4CCN(C)CC4)CC3)c(OC)c2)nc1NC1CCOCC1 |  | Japanese patients, plasma | oral, 40 mg, cycle 1 day 28, multiple doses, median | 3.92 h
CNC(=O)c1ccc(-c2cnc3ncc(Cc4ccc5ncccc5c4)n3n2)cc1F |  | Japanese patients, plasma | oral, 400 mg twice daily, cycle 1 day 1, fasting | 1.93 h
CO[C@H]1CC[C@H](N2C(=O)CNc3ncc(-c4ccc(C(C)(C)O)nc4)nc32)CC1 |  | patients, plasma | oral, 60 mg, day -1, median | 1.5 h
CC(C)(C)c1cc(C(C)(C)C)c(NC(=O)c2c[nH]c3ccccc3c2=O)cc1O |  | human, plasma | oral, standard ETI dose | 3 h
CCCCC[C@H](O)CC[C@@H]1[C@H]2Cc3cccc(OCC(=O)O)c3C[C@H]2C[C@H]1O | LC-MS/MS | Japanese PAH patients, female, plasma | inhaled, 54 µg, mean | 0.15 h
N[C@@H](CC(=O)N1CCc2c(nc(C(F)(F)F)nc2C(F)(F)F)C1)CN1CC(F)(F)CCC1=O |  | healthy Korean adults, fasted, plasma | oral, 50 mg single dose, separate tablets, median, added: enavogliflozin 0.3 mg | 2 h
C=C(F)C(=O)N1CCN(c2nc(OC[C@@H]3CCCN3C)nc3c2CCN(c2cccc4cccc(Cl)c24)C3)C[C@@H]1CC#N |  | healthy volunteers, plasma | oral, 400 mg twice daily | 6 h
C=CC(=O)NC1CCN(c2ncc3ncnc(Nc4ccc(Oc5ccc6c(c5)ncn6C)c(C)c4)c3n2)CC1 |  | healthy male volunteers, plasma | oral, 60 mg, unlabelled tablet | 2.5 h
C[C@@H](N)C1CCN(S(=O)(=O)c2cccc3cnccc23)CC1 |  | healthy volunteers, plasma | oral, across dose levels | ≤ 1 h
CN(CCC(=O)O)C(=O)c1ccc2c(c1)CC[C@@H]1[C@@H]2CC[C@]2(C)C(c3cncc(F)c3)=CC[C@@H]12 |  | postmenopausal women, plasma | 3 mg single dose, median | 3 h
CCCCCCCCCCCCCCCC(=O)N[C@@H](CCC(=O)NCCCC[C@@H]1NC(=O)[C@H]([C@@H](C)CC)NC(=O)[C@@H](NC(=O)[C@@H]2CCCN2C(=O)[C@H](Cc2ccccc2)NC(=O)[C@H](Cc2c[nH]cn2)NC(=O)[C@@H](NC(=O)[C@H](CC(=O)O)NC(=O)CC(C)C)[C@@H](C)O)CSSC[C@@H](C(=O)N[C@@H](CCCCN)C(N)=O)NC(=O)CNC(=O)[C@H](CCCCN)NC(=O)[C@H](CO)NC(=O)[C@H](CCCNC(=N)N)NC(=O)[C@@H]2CCCN2C(=O)[C@H](CCC(=O)O)NC(=O)[C@H](Cc2ccccc2)NC1=O)C(=O)O |  | healthy volunteers, plasma | subcutaneous, 30 mg single, lyophilised formulation, median | 24 h
O=C(c1cccnc1-c1ccncc1)N1CCC(O)(Cc2ccccc2)CC1 |  | healthy Japanese adults, plasma | oral, 100 mg twice daily, day 7, median | 0.5 h
Oc1ccc([C@@H](O)c2cc(-c3ncnc4cc(N5CCOCC5)ccc34)c(F)cc2Cl)nn1 | median | healthy volunteers, plasma | oral, 100 mg, high-fat fed tablet | 4 h
